Assay results gathered from unrelated publications.
Protocols differ between the studies behind these lines. ± gives the spread as reported.

SMILES	assay	test system	setting	scale	measurement	value
N=C(N)NCCC[C@@H]1NC(=O)[C@H](Cc2c[nH]c3ccccc23)NC(=O)[C@@H](CC2CCCCC2)NC(=O)[C@@H]2CCCN2C(=O)[C@@H](NC(=O)CCc2ccccc2)CCCNC1=O	–	C57BL/6J mice, plasma	intravenous, 1 mg/kg, two-compartment model	–	elimination rate constant	0.00282 s⁻¹
O=C(c1ccccc1)N1C(c2ccc(OCC3CCN(CCCF)C3)cc2)c2ccc(O)cc2CC12CC2 (stereo not drawn)	plasma protein binding	mouse plasma	–	–	fu	0.0257
Cn1c(=O)oc2ccc(-c3ccc(CC(C#N)NC(=O)C4CNCCCO4)c(F)c3)cc21 (stereo not drawn)	measured: abdominal pain	human volunteers	oral, dose not given	–	treatment-emergent adverse event incidence	3.7%
Cc1ccc(/N=N/c2c(O)ccc3ccccc23)c(C)c1	–	rat whole blood	16.0 µg/L, 30 days, -20 °C, long-term storage	–	measured concentration	16.1 µg/L
CC1=C(C=O)C(C)(C)CC=C1	–	BALB/c mice	oral, 100 mg/kg	–	time plasma level detectable	≤ 2 h
C=C(c1ccc(C(=O)O)c(F)c1)c1cc2c(cc1C)C(C)(C)C=CC2(C)C	–	Sprague-Dawley rat, male, plasma	oral, 100 mg/kg, 6 h, sesame oil vehicle	–	HDL level	58 ± 11 mg/dL
CC(C)C(=O)NC1CC=C(c2cc3c(Nc4ccc5scnc5c4)ncnc3s2)CC1 (stereo not drawn)	–	BALB/c mouse, plasma	oral, 10 mg/kg, 2 h	–	concentration	125 ng/mL
[11CH3]c1ccc2nc(C3CCC3)n(-c3ccc4[nH]ncc4c3)c2n1	extrapolated from mouse biodistribution	human female, gallbladder wall	–	–	absorbed dose	4.8 µSv/MBq
Clc1ccc(C(c2c[nH]c3ccccc23)c2c[nH]c3ccccc23)cc1	–	C57BL/6 mouse, male, midbrain	oral, 25 mg/kg	–	half-life	~15 min
C[C@H]1CO[C@@H]2Cn3cc(C(=O)NCc4ccc(F)cc4F)c(=O)c(O[C@@H]4O[C@H](C(=O)O)[C@@H](O)[C@H](O)[C@H]4O)c3C(=O)N12	LC-MS/MS	human, UGT1A1 wild-type, plasma	intramuscular, dose not given, 1 weeks after first injection	–	plasma concentration	63.1 ± 76.2 ng/mL
COC(=O)C(CSC1CC(=O)N(CCC(=O)O)C1=O)NC(=O)CCC(NC(=O)c1ccc(NCc2cnc3nc(N)nc(N)c3n2)cc1)C(=O)O (stereo not drawn)	–	male beagle dogs, plasma	intravenous and subcutaneous, range over both routes	–	terminal half-life	76.8 to 128 min
Cc1ccc(CNC(=O)Cc2ccc(-c3ccc(OCCN4CCOCC4)cc3)cn2)cc1	–	ICR mouse	intravenous, 2 mg/kg	–	half-life	423 ± 115 min
CC(=O)[CH](C(C)=O)[Pt-2]1([S+](C)C)[O]C(C)=CC(C)=[O+]1 (stereo not drawn)	measured: platinum	rat, whole blood	intravenous, dose not given	–	AUC(0-24 h)	263000 ng·h/mL
OCc1cn(Cc2ccc(-c3noc(-c4ccc(OCC[18F])c(C(F)(F)F)c4)n3)cc2)nn1	–	rat, brain	intravenous, 1 h	–	tracer uptake	0.71 %ID/g
C=CC(=O)Nc1cc(Nc2nccc(-c3cn(C4CC4)c4ccccc34)n2)c(OC)cc1NC	radiolabelled metabolite profiling	human male, plasma	oral, 110 mg, 4 h	–	plasma concentration	7.75 ng/g
O=C([O-])CN1CCN(CC(=O)[O-])CCN(CC(=O)NC[C@H]2CC[C@H](C(=O)N[C@H](Cc3cnc4ccccc4c3)C(=O)NCCCC[C@H](NC(=O)N[C@@H](CCC(=O)O)C(=O)O)C(=O)O)CC2)CCN(CC(=O)[O-])CC1.[64Cu+2]	–	prostate cancer patients	140 MBq, 24 h post-injection, sample A cm from patient	–	radiation exposure rate	< 2.4 µSv/h
C=C(c1ncc(C(=O)O)cn1)c1cc2c(cc1C)C(C)(C)CCC2(C)C	–	Sprague-Dawley rat, male	oral, 100 mg/kg, 12 h, sesame oil vehicle	–	blood triglycerides	352 ± 355 mg/dL

SMILES	assay	test system	setting	scale	measurement	value
O=C(O)C1CN(Cc2ccc(-c3noc(-c4ccc(OCC[18F])c(C(F)(F)F)c4)n3)cc2)C1	–	C57BL/6 mouse LPS-treated	30 min post-injection	baseline: sham mice	liver uptake	increased
CC(C)C[C@@H](NC(=O)[C@H](NC(=O)[C@H]1CCCN1)[C@H](C)O)C(=O)N[C@H](Cc1c[nH]cn1)C(=O)N[C@@H](C(=O)N[C@H](Cc1c[nH]cn1)C(=O)N[C@H](CC(N)=O)C(=O)N[C@H](CCCNC(=N)N)C(=O)N[C@H](CCCNC(=N)N)C(=O)N[C@H](CCCNC(=N)N)C(=O)N[C@H](CCCNC(=N)N)C(=O)N[C@H](CCCNC(=N)N)C(N)=O)[C@H](C)O	–	beagle dog, plasma	intravenous, 3 mg/kg, single dose	–	AUC(0-inf)	28600 ng·h/mL
CCCC[C@@H]1NC(=O)[C@@H](NC(=O)[C@H](CCC(=O)O)NC(=O)CNC(=O)CN2CCN(CC(=O)O)CCN(CC(=O)O)CCN(CC(=O)O)CC2)CCCCNC(=O)C[C@@H](C(N)=O)NC(=O)[C@H](C(C)C)NC(=O)[C@@H]2CCCN2C(=O)[C@H](CCCNC(=N)N)NC(=O)CNC(=O)[C@H](Cc2c[nH]c3ccccc23)NC(=O)[C@H](CCCNC(=N)N)NC(=O)[C@@H](Cc2ccccc2)NC(=O)[C@H](Cc2c[nH]cn2)NC(=O)[C@H](CCC(=O)O)NC1=O [gallium-67 labelled]	–	normal C57 mice	intravenous, 0.037 MBq, 4 h	–	intestine uptake	2 ± 0.81 %ID
CC(C)(O)c1ncc([S@](N)(=O)=NC(=O)Nc2c3c(cc4c2CCC4)CCC3)s1	–	healthy human	oral, 200 mg once daily, day 1, spray-dried dispersion, geometric mean	–	Cmax	22100 ng/mL
O=c1nc(NO)ccn1[C@@H]1O[C@H](CO)[C@@H](O)[C@H]1O	RT-PCR, measured: CYP2B2	rat, arthritis model, liver	oral, 80 mg/kg twice daily, 5 days	baseline: untreated arthritic rats	mRNA level	0.8 fold
Clc1ccc2c(c1)nc(NCC1CCCN1)n2Cc1ccccc1 (stereo not drawn)	metabolic stability	mouse, liver microsomes	0.1 µM, 30 min, pH 7.4	–	compound remaining	98.9%
Cc1ccc(-c2ccc(-c3cc4sccc4o3)cn2)nc1	TCSPC	acetonitrile	zinc-free ligand	–	radiative decay rate constant	0.46 ns⁻¹
Cc1ccc(OCC(=O)O)cc1	–	Sprague-Dawley rat, female, plasma	oral gavage, 10 mg/kg of parent drug	–	AUC(0-last)	7700 ± 1440 ng·h/mL
CCCC[C@H](NC(=O)CNC(=O)CNC(=O)CN1CCN(CC(=O)O)CCN(CC(=O)O)CC1)C(=O)N[C@H]1CC(=O)NCCCC[C@@H](C(N)=O)NC(=O)[C@H](Cc2c[nH]c3ccccc23)NC(=O)[C@H](CCCNC(=N)N)NC(=O)[C@@H](Cc2ccccc2)NC(=O)[C@H](Cc2c[nH]cn2)NC1=O [copper-64 labelled]	–	female C57 mouse, B16/F1 melanoma	intravenous, 0.037 MBq, 2 h	baseline: tumour over muscle	uptake ratio	42.7
NS(=O)(=O)c1ccc(N2N=C(C(F)(F)F)CC2c2ccc(F)cc2F)cc1 (stereo not drawn)	–	Beagle dog, male, arthritis model, plasma	oral, 4 mg/kg, second dose day 12, day 21	–	plasma concentration	74 ± 85 ng/mL
COc1cc(NC(C)=O)c2c(c1O)-c1c(OC)c(OC)cc3c1C(C2)N(C)CC3 (stereo not drawn)	–	rat heart homogenate	5 µg/mL, time not given, three freeze-thaw cycles	–	remaining compound	110 ± 1.9%
O=[11C](N1CCC(CNS(=O)(=O)c2ccc(Cl)cc2)CC1)n1cncn1	PET	Sprague-Dawley rat, cerebellum	intravenous, dose not given, baseline	–	radioactivity uptake	0.43 SUV
Oc1ccc2ccccc2c1/N=N/c1ccc(/N=N/c2ccccc2)cc1	–	rat whole blood QC samples	16.0 µg/L, 4 h, room temperature, short-term stability	–	measured concentration	16.2 µg/L
c1ccc(COc2cc3nc(c2)CNCCNCCNC3)cc1	pH-potentiometric titration	–	298 K, I 0.15 M NaCl	–	log K3 protonation constant	2.35
CC(C)[C@H](NC(=O)CNC(=O)[C@H](CCC(N)=O)NC(=O)[C@H](C)N)C(=O)O	–	human male, plasma	intravenous infusion, 30 mg/kg single, 15 min infusion, geometric mean	–	half-life	22.2 min
C[C@@H](C(=O)O)N(CC(=O)N(CCS)CC(N)=O)C(=O)CN(C(=O)CN(C(=O)CN(C(=O)CN(C(=O)CN(C(=O)CN(C(=O)CN(C(=O)CN(C(=O)CN(C(=O)CN(C(=O)CN(C(=O)CN(CCS)C(=O)CN1CCCN(C(=O)CN2CCCNCC2)CC1)[C@@H](C)c1ccccc1)[C@@H](C)C(=O)O)[C@@H](C)C(=O)O)[C@@H](C)c1ccccc1)[C@@H](C)C(=O)O)[C@@H](C)C(=O)O)[C@@H](C)c1ccccc1)[C@@H](C)C(=O)O)[C@@H](C)C(=O)O)[C@@H](C)c1ccccc1)[C@@H](C)C(=O)O	–	distilled water	–	–	water solubility	≥ 22.9 mM

Some of these lines once more:
SMILES	assay	test system	setting	scale	measurement	value
COC(=O)C(CSC1CC(=O)N(CCC(=O)O)C1=O)NC(=O)CCC(NC(=O)c1ccc(NCc2cnc3nc(N)nc(N)c3n2)cc1)C(=O)O (stereo not drawn)	–	male beagle dogs, plasma	intravenous and subcutaneous, range over both routes	–	terminal half-life	76.8 to 128 min
Cc1ccc(CNC(=O)Cc2ccc(-c3ccc(OCCN4CCOCC4)cc3)cn2)cc1	–	ICR mouse	intravenous, 2 mg/kg	–	half-life	423 ± 115 min
CC(=O)[CH](C(C)=O)[Pt-2]1([S+](C)C)[O]C(C)=CC(C)=[O+]1 (stereo not drawn)	measured: platinum	rat, whole blood	intravenous, dose not given	–	AUC(0-24 h)	263000 ng·h/mL
OCc1cn(Cc2ccc(-c3noc(-c4ccc(OCC[18F])c(C(F)(F)F)c4)n3)cc2)nn1	–	rat, brain	intravenous, 1 h	–	tracer uptake	0.71 %ID/g
C=CC(=O)Nc1cc(Nc2nccc(-c3cn(C4CC4)c4ccccc34)n2)c(OC)cc1NC	radiolabelled metabolite profiling	human male, plasma	oral, 110 mg, 4 h	–	plasma concentration	7.75 ng/g
